Results gathered from unrelated publications.
Numbered parts are unrelated; each lists some results of a single study. Several values in a cell are separate wells, animals, samples, runs or records.
UniProt Q15349, sequence (whole entry, looked up): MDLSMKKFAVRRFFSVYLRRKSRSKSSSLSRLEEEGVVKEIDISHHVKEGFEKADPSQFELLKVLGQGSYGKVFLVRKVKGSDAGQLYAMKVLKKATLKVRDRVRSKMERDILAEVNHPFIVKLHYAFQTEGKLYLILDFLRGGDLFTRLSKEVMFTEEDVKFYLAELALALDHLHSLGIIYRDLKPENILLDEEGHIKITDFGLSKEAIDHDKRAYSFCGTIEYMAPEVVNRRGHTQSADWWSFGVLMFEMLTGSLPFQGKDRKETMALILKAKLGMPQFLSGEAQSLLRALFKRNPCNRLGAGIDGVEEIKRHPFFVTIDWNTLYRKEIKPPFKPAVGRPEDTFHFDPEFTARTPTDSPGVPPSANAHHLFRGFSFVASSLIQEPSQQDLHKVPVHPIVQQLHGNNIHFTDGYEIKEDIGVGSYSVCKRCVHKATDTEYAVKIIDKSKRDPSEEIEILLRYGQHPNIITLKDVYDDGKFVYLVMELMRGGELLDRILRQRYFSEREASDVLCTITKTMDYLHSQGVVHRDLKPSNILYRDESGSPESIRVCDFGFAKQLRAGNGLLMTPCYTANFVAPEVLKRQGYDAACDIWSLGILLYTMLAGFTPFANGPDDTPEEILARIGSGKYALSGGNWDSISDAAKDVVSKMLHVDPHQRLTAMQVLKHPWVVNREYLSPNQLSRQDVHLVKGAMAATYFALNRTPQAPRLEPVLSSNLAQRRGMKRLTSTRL
UniProt P06239, sequence (whole entry, looked up): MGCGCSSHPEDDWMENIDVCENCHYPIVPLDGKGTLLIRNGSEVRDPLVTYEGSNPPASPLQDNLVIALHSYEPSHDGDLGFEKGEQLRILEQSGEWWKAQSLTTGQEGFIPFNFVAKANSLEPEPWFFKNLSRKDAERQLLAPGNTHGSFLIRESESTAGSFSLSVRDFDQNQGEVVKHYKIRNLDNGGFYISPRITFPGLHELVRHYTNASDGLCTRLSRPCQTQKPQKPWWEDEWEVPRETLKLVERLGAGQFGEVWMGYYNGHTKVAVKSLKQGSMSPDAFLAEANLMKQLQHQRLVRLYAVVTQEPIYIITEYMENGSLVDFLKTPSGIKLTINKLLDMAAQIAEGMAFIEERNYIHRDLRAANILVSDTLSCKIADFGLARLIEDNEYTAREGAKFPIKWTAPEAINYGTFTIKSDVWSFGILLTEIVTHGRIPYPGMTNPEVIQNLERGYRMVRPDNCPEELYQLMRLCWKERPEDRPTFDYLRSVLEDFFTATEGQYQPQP
UniProt Q9UL54, sequence (whole entry, looked up): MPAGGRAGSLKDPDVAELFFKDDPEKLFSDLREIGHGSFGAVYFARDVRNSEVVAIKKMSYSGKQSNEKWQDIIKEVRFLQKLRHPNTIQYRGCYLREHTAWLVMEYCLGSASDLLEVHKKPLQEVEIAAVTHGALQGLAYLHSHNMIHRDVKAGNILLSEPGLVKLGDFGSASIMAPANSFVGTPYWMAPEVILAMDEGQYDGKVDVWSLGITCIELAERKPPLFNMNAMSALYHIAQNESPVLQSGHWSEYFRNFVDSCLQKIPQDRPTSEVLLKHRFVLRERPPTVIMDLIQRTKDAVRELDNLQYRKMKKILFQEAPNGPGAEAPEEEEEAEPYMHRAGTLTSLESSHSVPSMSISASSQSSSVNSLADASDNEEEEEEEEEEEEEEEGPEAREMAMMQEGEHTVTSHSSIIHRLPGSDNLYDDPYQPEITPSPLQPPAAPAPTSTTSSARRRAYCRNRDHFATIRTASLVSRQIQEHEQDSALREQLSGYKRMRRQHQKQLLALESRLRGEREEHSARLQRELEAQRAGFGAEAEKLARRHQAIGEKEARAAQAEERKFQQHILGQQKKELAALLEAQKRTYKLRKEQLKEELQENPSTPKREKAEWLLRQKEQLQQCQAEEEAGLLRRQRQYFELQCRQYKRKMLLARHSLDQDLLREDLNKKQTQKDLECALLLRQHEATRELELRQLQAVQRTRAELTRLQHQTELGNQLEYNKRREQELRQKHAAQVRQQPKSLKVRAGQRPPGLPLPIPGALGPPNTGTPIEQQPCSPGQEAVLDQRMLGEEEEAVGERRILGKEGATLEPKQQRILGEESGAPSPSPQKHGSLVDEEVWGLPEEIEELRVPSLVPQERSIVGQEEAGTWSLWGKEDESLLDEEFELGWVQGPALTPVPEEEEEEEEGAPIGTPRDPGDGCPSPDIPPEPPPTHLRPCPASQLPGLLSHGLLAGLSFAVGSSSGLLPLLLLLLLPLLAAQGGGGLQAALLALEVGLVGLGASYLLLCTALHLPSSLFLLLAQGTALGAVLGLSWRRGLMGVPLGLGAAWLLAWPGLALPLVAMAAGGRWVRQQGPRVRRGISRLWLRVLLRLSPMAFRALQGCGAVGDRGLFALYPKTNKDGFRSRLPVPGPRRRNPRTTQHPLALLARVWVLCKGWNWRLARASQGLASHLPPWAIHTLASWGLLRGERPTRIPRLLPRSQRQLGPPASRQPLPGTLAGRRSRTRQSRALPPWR
UniProt Q9UHD2, sequence (whole entry, looked up): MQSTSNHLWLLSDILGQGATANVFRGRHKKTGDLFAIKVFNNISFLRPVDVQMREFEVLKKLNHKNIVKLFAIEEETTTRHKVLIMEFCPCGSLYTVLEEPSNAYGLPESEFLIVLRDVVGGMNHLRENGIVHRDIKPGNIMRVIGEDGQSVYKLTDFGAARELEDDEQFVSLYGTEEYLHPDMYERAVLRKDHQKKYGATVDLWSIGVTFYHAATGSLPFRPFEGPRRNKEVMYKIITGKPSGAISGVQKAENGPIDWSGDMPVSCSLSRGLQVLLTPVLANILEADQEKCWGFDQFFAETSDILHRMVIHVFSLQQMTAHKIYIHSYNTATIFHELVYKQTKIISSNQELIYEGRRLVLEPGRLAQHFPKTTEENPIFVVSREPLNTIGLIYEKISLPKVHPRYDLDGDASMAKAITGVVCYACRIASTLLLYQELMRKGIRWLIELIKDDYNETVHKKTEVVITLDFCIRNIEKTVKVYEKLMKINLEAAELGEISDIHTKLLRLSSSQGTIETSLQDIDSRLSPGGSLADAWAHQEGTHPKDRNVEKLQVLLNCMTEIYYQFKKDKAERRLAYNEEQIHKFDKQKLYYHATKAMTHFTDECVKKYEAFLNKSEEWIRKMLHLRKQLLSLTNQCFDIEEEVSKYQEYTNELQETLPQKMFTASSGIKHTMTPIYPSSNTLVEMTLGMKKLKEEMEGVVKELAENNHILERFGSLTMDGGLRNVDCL
UniProt P11802, sequence (whole entry, looked up): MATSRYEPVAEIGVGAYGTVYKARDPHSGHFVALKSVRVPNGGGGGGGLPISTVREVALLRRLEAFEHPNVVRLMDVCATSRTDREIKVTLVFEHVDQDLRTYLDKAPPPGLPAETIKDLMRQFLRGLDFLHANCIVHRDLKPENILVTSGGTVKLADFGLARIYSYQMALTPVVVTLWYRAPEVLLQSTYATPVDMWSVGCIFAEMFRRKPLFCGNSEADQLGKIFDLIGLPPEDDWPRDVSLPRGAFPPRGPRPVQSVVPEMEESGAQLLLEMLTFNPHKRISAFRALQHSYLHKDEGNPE
UniProt Q12866, sequence (whole entry, looked up): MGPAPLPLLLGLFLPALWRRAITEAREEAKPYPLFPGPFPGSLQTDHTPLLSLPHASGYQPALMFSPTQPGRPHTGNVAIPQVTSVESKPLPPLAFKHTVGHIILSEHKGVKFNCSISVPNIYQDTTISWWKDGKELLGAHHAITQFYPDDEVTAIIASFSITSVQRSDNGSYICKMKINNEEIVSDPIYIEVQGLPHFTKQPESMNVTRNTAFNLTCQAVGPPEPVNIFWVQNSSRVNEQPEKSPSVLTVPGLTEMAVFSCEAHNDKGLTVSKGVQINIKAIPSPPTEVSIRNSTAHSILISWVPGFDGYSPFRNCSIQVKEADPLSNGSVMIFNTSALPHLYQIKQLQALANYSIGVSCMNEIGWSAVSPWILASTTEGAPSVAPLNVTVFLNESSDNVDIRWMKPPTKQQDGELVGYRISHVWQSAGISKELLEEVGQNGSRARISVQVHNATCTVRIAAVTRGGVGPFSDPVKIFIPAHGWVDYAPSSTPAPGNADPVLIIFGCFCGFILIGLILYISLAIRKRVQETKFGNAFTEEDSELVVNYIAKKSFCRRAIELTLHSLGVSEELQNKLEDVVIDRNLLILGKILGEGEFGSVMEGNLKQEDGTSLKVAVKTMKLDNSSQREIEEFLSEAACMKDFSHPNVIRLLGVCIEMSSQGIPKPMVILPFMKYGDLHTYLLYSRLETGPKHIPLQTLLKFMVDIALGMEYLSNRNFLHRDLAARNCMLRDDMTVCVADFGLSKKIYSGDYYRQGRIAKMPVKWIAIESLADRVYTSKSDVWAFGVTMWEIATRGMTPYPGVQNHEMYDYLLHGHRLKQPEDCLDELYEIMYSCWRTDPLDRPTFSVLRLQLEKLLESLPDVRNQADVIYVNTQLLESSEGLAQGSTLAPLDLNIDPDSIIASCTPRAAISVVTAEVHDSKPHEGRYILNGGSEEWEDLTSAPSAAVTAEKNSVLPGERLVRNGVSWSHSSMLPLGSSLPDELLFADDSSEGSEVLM

Sample 1 — technique: Phase 2a trial; host: idiopathic pulmonary fibrosis patients
Compound: CC(C)n1cnc(-c2ccc(F)cc2)c1-c1ncc(C(=O)Nc2ccc(N3CCN(C)CC3)cc2)[nH]1
measured | dose | setting | patients with adverse events [%]
eye disorders (SOC) | 60 mg once daily | grade 3 maximum intensity | 0
vision blurred | dose not given | grade 2 maximum intensity, all arms | 0
eye disorders (SOC) | 30 mg once daily | grade 2 maximum intensity | 0

Sample 2 — host: human; medium: microsomes or S9; tested at: 2 µM; time: 0.5 h
Compound | remaining compound
Cc1cc(C)c2c(c1)C(NC(=O)c1ncoc1C1CCCO1)CCO2 (centres unmarked) | 49.6%
Fc1ccc2nc(-c3ccc4c(c3)OCO4)c3nn[nH]c3c2c1 | 25.2%
O=c1ccn(-c2ccc(Cl)c(-c3ccc(Cl)cc3)c2)[nH]1 | 32.1%
Cc1nn(C)c(C)c1CN(C)S(=O)(=O)c1c(C)n[nH]c1C | 40.8%

Sample 3 — observed: cell-free assay; technique: competition with immobilised ligand; tested at: 1 µM
SMILES: CS(=O)(=O)c1cc(C2(NC(=O)c3cncc4c3cnn4-c3ccc(F)cc3)CC2)ccn1
target | remaining binding [%]
Non-receptor tyrosine-protein kinase TYK2, JH1 (TYK2, Homo sapiens, UniProt P29597) | 73
MAP4K2 (Homo sapiens, UniProt Q12851) | 100
CDK4 (Homo sapiens, UniProt P11802) | 83
TGFBR2 (Homo sapiens, UniProt P37173) | 100

Sample 4 — cell line: mouse MPNST tumor cells; technique: high-content immunofluorescence imaging; measured: nuclear SOX9; tested at: 10 µM; time: 12 h; setting: mean of 2 replicates; relative to: DMSO control; reading: higher = more nuclear SOX9
SMILES | nuclear SOX9 intensity
CCOc1cc(C(=O)Nc2ccc(Cl)c(-c3nc4ccccc4[nH]3)c2)cc(OCC)c1OCC | 161 % of DMSO
O=NN(CCCl)C(=O)NCCCl | 106 % of DMSO
CCc1ccc(CCOc2ccc(CC3SC(=O)NC3=O)cc2)nc1 (centres unmarked) | 93.2 % of DMSO and 103 % of DMSO
CCCCOC(=O)c1ccc(O)cc1 | 98.5 % of DMSO
O=C(NCC1(N2CCN(c3ccccc3)CC2)CCOCC1)c1cccnc1Sc1ccccc1 | 101 % of DMSO

Sample 5 — observed: enzyme activity; action: inhibitor; tested at: 0.5 µM; relative to: control
Compound: NC(=O)c1cccc(-c2cc(Nc3ccc(OC(F)(F)F)cc3)ncn2)c1
target | remaining activity
CSNK1G3 (Homo sapiens, UniProt Q9Y6M4) | 93.4%
JAK3 (Homo sapiens, UniProt P52333) | 101%
FGFR3 (Homo sapiens, UniProt P22607) | 93.2%
GRK7 (Homo sapiens, UniProt Q8WTQ7) | 97.1%
NEK1 (Homo sapiens, UniProt Q96PY6) | 89.6%
LCK (Homo sapiens, UniProt P06239) | 93.3%
MAP3K5 (Homo sapiens, UniProt Q99683) | 90.3%
CSNK1G2 (Homo sapiens, UniProt P78368) | 89.5%
MAP3K14 (Homo sapiens, UniProt Q99558) | 103%
MAP2K2 (Homo sapiens, UniProt P36507) | 92.5%
TBK1 (Homo sapiens, UniProt Q9UHD2) | 92.4%
ULK2 (Homo sapiens, UniProt Q8IYT8) | 103%
NEK6 (Homo sapiens, UniProt Q9HC98) | 97.4%
FGFR1 (Homo sapiens, UniProt P11362) | 96.9%
ACVR1B (Homo sapiens, UniProt P36896) | 103%
MAPK3 (Homo sapiens, UniProt P27361) | 94.5%
WEE1 (Homo sapiens, UniProt P30291) | 98.9%
FRK (Homo sapiens, UniProt P42685) | 95.5%
GSK3B (Homo sapiens, UniProt P49841) | 110%
EPHA3 (Homo sapiens, UniProt P29320) | 97.5%
MAPKAPK2 (Homo sapiens, UniProt P49137) | 97.3%
TAOK2 (Homo sapiens, UniProt Q9UL54) | 91%
RPS6KA2 (Homo sapiens, UniProt Q15349) | 96.2%
MERTK (Homo sapiens, UniProt Q12866) | 98.1%
MST1R (Homo sapiens, UniProt Q04912) | 111%

Sample 6 — cell line: A-375; tested at: 100 µM; time: 18 h
Compound | viability
Cc1ncc([N+](=O)[O-])n1CC(C)O (centres unmarked) | 85.5%
CCC1=C(C)CN(C(=O)NCCc2ccc(S(=O)(=O)NC(=O)N[C@H]3CC[C@H](C)CC3)cc2)C1=O | 105%
CC[C@@H](CO)NCCN[C@@H](CC)CO | 88.3%

Sample 7 — technique: RNA Bind-n-Seq; form: RNA; medium: in vitro; tested at: 1 µM; setting: whole 134-nt RNA, ends assumed; added: 150 mM KCl; relative to: input library; reading: higher = stronger binding
Target: Ras GTPase-activating protein-binding protein 1, RRM domain (G3BP1, Homo sapiens, UniProt Q13283)
UniProt Q13283, sequence (whole entry, looked up): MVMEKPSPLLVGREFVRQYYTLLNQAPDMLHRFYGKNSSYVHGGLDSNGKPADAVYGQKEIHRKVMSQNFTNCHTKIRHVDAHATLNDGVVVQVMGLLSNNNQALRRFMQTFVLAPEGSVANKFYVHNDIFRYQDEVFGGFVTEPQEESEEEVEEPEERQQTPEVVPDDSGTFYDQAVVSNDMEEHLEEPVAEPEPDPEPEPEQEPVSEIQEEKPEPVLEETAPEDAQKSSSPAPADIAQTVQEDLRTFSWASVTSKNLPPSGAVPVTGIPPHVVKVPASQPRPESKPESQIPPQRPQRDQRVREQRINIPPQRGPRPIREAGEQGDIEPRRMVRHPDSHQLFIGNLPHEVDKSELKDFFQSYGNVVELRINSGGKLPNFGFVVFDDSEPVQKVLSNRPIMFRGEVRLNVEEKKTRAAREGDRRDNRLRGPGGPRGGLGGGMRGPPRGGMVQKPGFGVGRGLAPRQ
Constant ends, left off below: GGGAGUUCUACAGUCCGACGAUC … UGGAAUUCUCGGGUGUCAAGG
Strand | log2 enrichment
GUCCUGUGCUACACAUCGUAUGUACCGAAUCGGGGUGGGGAAAAAAAGGGGUUUGGGGAAAGUAUUAUGUUACGCCGUUCGGAUCUGCAC | 0.914
UCCUGUGCUACACAUCGUAUGUACCGAAUCAAAUUUUUAAACCCCCCCAAACCCCCAAAAAAGUAUUAUGUUACGCCGUUCGGAUCUGCA | -0.571
UGGGAGGUGGAUUUUGUUUAUUUUUUUAGCUCAUUUCCAGGGGAGGGAAUUUUUUUUUAAUAUGUGUCAUGAAUAAAGUUGUUUUUGAAA | 1.42
AAGUCCUGUGCUACACAUCGUAUGUACCGAAUCGGGGAGGGGAAAGGGGAAAGGGGAAAGUAUUAUGUUACGCCGUUCGGAUCUGCACUU | 1.43
CUCAAGUCCUGUGCUACACAUCGUAUGUACCGAAUCGGGCCGGGCCGGCCGGGGAAAGUAUUAUGUUACGCCGUUCGGAUCUGCACUUCC | -0.379
UGGGAGGUGGAUUUUGUUUAUUUUUUUAGCUCAUUUCCAGGGGUGGGAAUUUUUUUUUAAGAUGUGUCAUGAAUAAAGUUGUUUUUGAAA | 1.96
CACAGACAACACGCACCCACACAGACACAGAGGGAAGGGGUUGGGAUGGGGACAGGGUGCACAGCAGGGCGGGGUAGGGCCCCAGCCCCU | -0.34
UCCUGUGCUACACAUCGUAUGUACCGAAUCGGGCCCCCCGGGGCCCCCCGGCCCCCCGGAAAGUAUUAUGUUACGCCGUUCGGAUCUGCA | -0.319

Single results of other studies
Structure (SMILES) | cell line | technique | tested at | time | reading | quantity | result
CC(C)(C(=O)O)[C@H](NC(=O)Cc1cccc(I)c1)c1ccc2oc(=O)[nH]c2c1 | A375 | Incucyte 3D growth | 30 µM | 42 h | higher = more growth | spheroid area | 2.04e+07 a.u. and 1.31e+07 a.u. and 2.09e+07 a.u. and 2.51e+07 a.u. and 1.02e+07 a.u. and 2.03e+07 a.u.

Repeated from above (sample 2):
Compound | remaining compound
O=c1ccn(-c2ccc(Cl)c(-c3ccc(Cl)cc3)c2)[nH]1 | 32.1%
Cc1cc(C)c2c(c1)C(NC(=O)c1ncoc1C1CCCO1)CCO2 (centres unmarked) | 49.6%
Fc1ccc2nc(-c3ccc4c(c3)OCO4)c3nn[nH]c3c2c1 | 25.2%
Cc1nn(C)c(C)c1CN(C)S(=O)(=O)c1c(C)n[nH]c1C | 40.8%
